Values quoted from earlier work as cited in several papers.
Lines come from different studies, so protocols differ. Numbers after ± are the reported error. ≈ marks a conversion by molar mass, not a printed value.
UniProt Q9P286, sequence (whole entry, looked up): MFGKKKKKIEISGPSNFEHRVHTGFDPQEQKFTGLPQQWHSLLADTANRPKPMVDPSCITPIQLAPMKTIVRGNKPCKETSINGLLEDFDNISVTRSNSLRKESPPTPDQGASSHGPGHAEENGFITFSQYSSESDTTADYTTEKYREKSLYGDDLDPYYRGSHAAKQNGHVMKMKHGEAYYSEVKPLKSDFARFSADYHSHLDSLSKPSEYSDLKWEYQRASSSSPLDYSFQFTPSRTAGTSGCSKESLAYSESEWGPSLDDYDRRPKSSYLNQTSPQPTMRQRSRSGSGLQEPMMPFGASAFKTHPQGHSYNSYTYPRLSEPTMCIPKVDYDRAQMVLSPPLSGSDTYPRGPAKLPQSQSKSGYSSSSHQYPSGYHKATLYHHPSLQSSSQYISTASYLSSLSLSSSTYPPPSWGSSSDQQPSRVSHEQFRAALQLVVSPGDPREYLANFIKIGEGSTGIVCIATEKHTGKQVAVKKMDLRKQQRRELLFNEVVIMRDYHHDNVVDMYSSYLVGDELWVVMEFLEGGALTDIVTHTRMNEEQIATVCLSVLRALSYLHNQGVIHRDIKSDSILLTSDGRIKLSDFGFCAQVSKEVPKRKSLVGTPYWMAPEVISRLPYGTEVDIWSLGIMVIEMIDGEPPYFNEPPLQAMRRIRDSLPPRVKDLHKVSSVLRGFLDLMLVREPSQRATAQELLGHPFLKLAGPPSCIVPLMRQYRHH

Structure (SMILES) = C[C@H]1COCCN1c1nc(-c2cnc(N)cc2C(F)F)nc(N2CCOCC2)n1; tested on = DoTc2 4520 cells; assay = cell growth; measurement = GI50; value = 0.42 µM
Structure (SMILES) = CC(C)n1c(Nc2cccnc2)nc2cnc(Nc3ccc(N4CCN(C)CC4)cc3)nc21; system = human relapsed or refractory AML; conditions = oral, 20 to 310 mg/day, monotherapy; measurement = tolerability; value = not toxic
Structure (SMILES) = CC(C)c1ncc(C(=O)N2CCOC3(CCN(Cc4ccc(F)c(CCNC[C@H](O)c5ccc(O)c6[nH]c(=O)sc56)c4)CC3)C2)s1; system = human; conditions = inhaled; measurement = lung deposited fraction; value = 0.62
Structure (SMILES) = C[Si](C)(C)O[Si](C)(C)O[Si](C)(C)C; conditions = 28 °C; measurement = log KAW; value = 2.13
Structure (SMILES) = CCN1CCN(Cc2ccc(Nc3ncc(F)c(-c4cc(F)c5nc(C)n(C(C)C)c5c4)n3)nc2)CC1; system = dog, plasma; conditions = dose not given; measurement = parent share of plasma radioactivity; value = ~41%
Structure (SMILES) = NC(=O)N1c2ccccc2CC(=O)c2ccccc21; assay = non-compartmental analysis; system = healthy adults; measurement = clearance; value = ~175 L/h
Structure (SMILES) = CC(=O)OCC(CCn1cnc2cnc(N)nc21)COC(C)=O; system = rat; conditions = 400 mg/kg; measurement = oral bioavailability; value = 41%
Structure (SMILES) = COc1cc2c(Oc3ccc4[nH]c(C)cc4c3F)ccnc2cc1OCC1(N)CC1; system = human; conditions = 12 mg single dose; measurement = AUC(0-t); value = 875 ± 240 ng·h/mL
Structure (SMILES) = Nc1ncnc2c1ncn2[C@@H]1O[C@H](CO)C[C@@H]1F; system = dog; conditions = 50 mg/kg; measurement = oral bioavailability; value = 83%
Structure (SMILES) = c1ccc2cc3ccccc3cc2c1; assay = slow stirring; measurement = logKow; value = 4.73
Structure (SMILES) = N#CCNC(=O)c1ccc(-c2ccnc(Nc3ccc(N4CCOCC4)cc3)n2)cc1; system = human, feces; conditions = oral, time not given, single dose 14C-labelled; how to read = reference: dose; measurement = recovered drug-related material; value = 69.3%
Structure (SMILES) = CCCCC(CC)C(=O)O (stereo not shown); assay = craniofacial deformation; system = zebrafish embryo; conditions = nominal concentration; measurement = EC10; value = 12 µM
Structure (SMILES) = CN(C)C(=O)c1cc2cnc(Nc3ccc(N4CCNCC4)cn3)nc2n1C1CCCC1; system = human; conditions = geometric mean all doses; measurement = effective half-life; value = 12 to 33.1 h
Structure (SMILES) = CC1(C)CCC(CN2CCN(c3ccc(C(=O)NS(=O)(=O)c4ccc(NCC5CCOCC5)c([N+](=O)[O-])c4)c(Oc4cnc5[nH]ccc5c4)c3)CC2)=C(c2ccc(Cl)cc2)C1; assay = legacy population PK model; system = human; measurement = apparent intercompartmental clearance (Q/F); value = 97.2 L/day
Structure (SMILES) = N#C[C@@]1(c2ccc3c(N)ncnn23)O[C@H](CO)[C@@H](O)[C@H]1O; system = dog; conditions = 5 mg/kg oral, 2 mg/kg intravenous, unadjusted NCATS data; measurement = oral bioavailability; value = 93%
Structure (SMILES) = CC(=O)N(C)[C@H]1CCN(C(=O)c2cnc3c(c2)C[C@](C)(c2ccc(F)cc2)N3)C1; system = Wistar Han rat; conditions = 13 weeks; measurement = NOAEL; value = 50 mg/kg/day
Structure (SMILES) = Nc1ccn([C@@H]2O[C@H](CO)[C@@H](O)C2(F)F)c(=O)n1; system = metastatic pancreatic cancer patients; conditions = dose not given; measurement = sepsis incidence; value = 2%
Structure (SMILES) = CNC(=O)c1c(C)oc2cc(Oc3ncnc4cc(OC)c(OC)cc34)ccc12; system = feces; conditions = 5 mg radiolabelled, time not given; measurement = dose recovered unchanged; value = 5.34%
Structure (SMILES) = CN[C@@H](C)C(=O)N[C@H]1CN(S(=O)(=O)c2cccc(S(=O)(=O)N3CC[C@H]4CC[C@@H](C(=O)NC(c5ccccc5)c5ccccc5)N4C(=O)[C@@H](NC(=O)[C@H](C)NC)C3)c2)CC[C@H]2CC[C@@H](C(=O)NC(c3ccccc3)c3ccccc3)N2C1=O; system = rat; how to read = reference: dose; measurement = cumulative urinary excretion; value = < 1%
Structure (SMILES) = CN(C)C(=N)N=C(N)N; system = human liver failure patients; measurement = non-renal clearance; value = 162 mL/min
Structure (SMILES) = C[S+]([O-])CCCCN=C=S (stereo not shown); system = rat; measurement = half-life; value = 4 h
Structure (SMILES) = O=C(Nc1ccccc1)c1cc([N+](=O)[O-])ccc1[76Br]; system = nude mice, MDA-MB-435 xenograft, tumour; conditions = 2 h; measurement = tumour uptake; value = 4 to 5 %ID/g
Structure (SMILES) = Cn1cncc1[C@@](N)(c1ccc(Cl)cc1)c1ccc2c(c1)c(-c1cccc(Cl)c1)cc(=O)n2C; system = adult patients, acute leukaemia; conditions = dose not given, steady state; measurement = AUC(0-12 h); value = 3520 ng·h/mL
Structure (SMILES) = CO[C@@H](C)Cn1c(=O)n(C)c2cnc3ccc(-c4cncc(C(C)(C)O)c4)cc3c21; assay = refers to: grade ≥3 pruritus; system = cancer patients; conditions = dose not given, monotherapy; measurement = patients with related adverse event; value = 2.1%
Structure (SMILES) = CCC(C)n1ncn(-c2ccc(N3CCN(c4ccc(OCC5COC(Cn6cncn6)(c6ccc(Cl)cc6Cl)O5)cc4)CC3)cc2)c1=O (stereo not shown); system = human, plasma; conditions = oral, 100 mg single dose, mean observed; measurement = AUC; value = 1890 ng·h/mL
Structure (SMILES) = CCCOc1ccc(S(=O)(=O)N2CCN(CCO)CC2)cc1-c1nc2c(CCC)cn(CC)c2c(=O)[nH]1; system = healthy male volunteers; conditions = dose not given, without alcohol; measurement = systolic blood pressure change; value = -8.5 mmHg
Structure (SMILES) = COCCc1ccc(OCC(O)CNC(C)C)cc1 (stereo not shown); system = rat; measurement = plasma clearance; value = 112 mL/min/kg
Structure (SMILES) = O=C(O)CN(CCN(CC(=O)O)CC(=O)O)CCN(CC(=O)O)CC(=O)O; assay = pH-potentiometry, refers to: logK5H; system = 0.1 M NaClO4; conditions = 25 °C; measurement = protonation constant (log); value = 2.46
Structure (SMILES) = CCCCCOC(=O)c1ccc(O)cc1; conditions = pH 7.4; measurement = logD; value = 3.18
Structure (SMILES) = COc1ncc(-c2nc3c(n2C(C)C)[C@H](c2ccc(Cl)cc2)N(c2cc(Cl)cn(C)c2=O)C3=O)c(OC)n1; system = patients with solid tumours or lymphomas; conditions = dose not given, grade ≥3, first-in-human trials; measurement = patients with related neutropenia; value = 23%
Structure (SMILES) = Cn1ncnc1[C@H]1c2n[nH]c(=O)c3cc(F)cc(c23)N[C@@H]1c1ccc(F)cc1; system = human; conditions = dose not given, monotherapy; measurement = apparent central volume Vct/Ft; value = 162 L
Structure (SMILES) = C=CC(=O)Nc1cc(Nc2nccc(-c3cn(C)c4ccccc34)n2)c(OC)cc1N(C)CCN(C)C; conditions = pH 7.4; measurement = kinetic solubility; value = 7 µM (≈ 3.5 µg/mL)
Structure (SMILES) = C=C1[C@H](CO)[C@@H](O)C[C@@H]1n1cnc2c(=O)[nH]c(N)nc21; system = rat; conditions = 25 mg/kg; measurement = oral bioavailability; value = 37 to 80%
Structure (SMILES) = COc1cnc(-n2cnc(C)n2)c2[nH]cc(C(=O)C(=O)N3CCN(C(=O)c4ccccc4)CC3)c12; system = healthy subjects; conditions = dose not given, drug interaction study, with: rifampin; measurement = AUC decrease; value = 82%
Structure (SMILES) = CCO[C@H]1CCN(Cc2c(OC)cc(C)c3[nH]ccc23)[C@H](c2ccc(C(=O)O)cc2)C1; system = healthy participants; conditions = oral, 1200 mg, single dose; measurement = tolerability; value = not toxic
Structure (SMILES) = CC1(C)S[C@@H]2[C@H](NC(=O)[C@H](N)c3ccccc3)C(=O)N2[C@H]1C(=O)O; tested on = Klebsiella oxytoca; system = clinical isolate RKI 52/07; measurement = MIC; value = > 16 µg/mL
Structure (SMILES) = Nc1cccc2c1C(=O)N(C1CCC(=O)NC1=O)C2=O (stereo not shown); system = relapsed refractory multiple myeloma patients; conditions = dose not given, all grades; measurement = renal failure incidence; value = 1%
Structure (SMILES) = CNC(C)C1CCC(N)C(OC2C(N)CC(N)C(OC3OCC(C)(O)C(NC)C3O)C2O)O1 (stereo not shown); tested on = Klebsiella oxytoca; system = clinical isolate RKI-No_609/16; measurement = MIC; value = > 8 µg/mL
Structure (SMILES) = C=CC(=O)NC1CCN(c2ncc3ncnc(Nc4ccc(Oc5ccc6c(c5)ncn6C)c(C)c4)c3n2)CC1; system = in vitro; measurement = oxidation contribution to metabolism; value = 48 to 62%
Structure (SMILES) = C[C@H](C(=O)NCc1ccccc1)N1C(=O)CCC1=O; assay = motor impairment; system = mouse; conditions = intraperitoneal; measurement = TD50; value = > 500 mg/kg
Structure (SMILES) = Cc1c(C#N)cccc1[C@@H](C)Nc1nnc(C)c2cnc(N3CCOCC3)cc12; tested on = ASPC1; assay = 3D cell viability; conditions = 14 d; measurement = IC50; value = > 1 µM
Structure (SMILES) = Cc1cc(-c2nccc3c2ccn3CC(=O)Nc2ccc(-c3cnccn3)cn2)ccn1; system = rat; conditions = 6 mg/kg/day, 1 month, repeat dosing; measurement = Cmax, total; value = 2.9 µM
Structure (SMILES) = Nc1ccn([C@H]2CO[C@@H](CO)S2)c(=O)n1; system = rat; conditions = 10 mg/kg; measurement = oral bioavailability; value = 68%
Structure (SMILES) = C=CC(=O)N1CCC([C@@H]2CCNc3c(C(N)=O)c(-c4ccc(Oc5ccccc5)cc4)nn32)CC1; system = human patients; conditions = oral, 320 mg once daily, day 8; measurement = AUC(0-8h); value = 2280 ± 868 ng·h/mL
Structure (SMILES) = COc1cc(Cc2cnc(N)nc2N)cc(OC)c1OC; system = human; measurement = CL; value = 1.17 mL/min/kg
Structure (SMILES) = Cc1cc(Nc2ccc(C(F)(F)F)c(F)c2)n2ncnc2n1; measurement = logD; value = 3.8
Structure (SMILES) = Nc1nc(=O)n([C@@H]2C=C[C@H](CO)O2)cc1F; system = dog; conditions = dose not given; measurement = oral bioavailability; value = 50%
Structure (SMILES) = C[C@]12CC[C@@H]3c4ccc(O)cc4C[C@@H](CCCCCCCCC[S+]([O-])CCCC(F)(F)C(F)(F)F)[C@H]3[C@@H]1CC[C@@H]2O (stereo partly shown); system = human patients, plasma; conditions = dose not given; measurement = steady-state plasma level; value = 28 ng/mL
Structure (SMILES) = CC(C)c1nc(-c2cccc(NS(=O)(=O)c3c(F)cccc3F)c2F)c(-c2ccnc(N)n2)s1; system = human; conditions = dose not given, dabrafenib monotherapy; how to read = reference: metabolite over dabrafenib; measurement = metabolite to parent ratio; value = ~70%
Structure (SMILES) = CO[C@H]1C[C@@H]2CC[C@@H](C)[C@@](O)(O2)C(=O)C(=O)N2CCCC[C@H]2C(=O)O[C@H]([C@H](C)C[C@@H]2CC[C@@H](OCCO)[C@H](OC)C2)CC(=O)[C@H](C)/C=C(\C)[C@@H](O)[C@@H](OC)C(=O)[C@H](C)C[C@H](C)/C=C/C=C/C=C/1C; system = plasma; conditions = concentration not given, population PK two-compartment; measurement = apparent peripheral volume (V2/F); value = 517 L
Structure (SMILES) = O=C(O)C(Cl)Cl; system = faeces; conditions = oral, concentration not given, time not given; how to read = reference: dose; measurement = faecal recovery; value = ~2%
Structure (SMILES) = NC12CNCCNCC(N)(CNCCNC1)CNCCNC2; conditions = ammonium group deprotonation; measurement = pKa1; value = ~6.4
Structure (SMILES) = O=C(O)CN(CC(=O)O)CC(=O)O; assay = pH-potentiometry, refers to: logK2H; system = 0.15 M NaClO4; conditions = 25 °C; measurement = protonation constant (log); value = 2.8
Structure (SMILES) = C#C[C@]1(O)CC[C@H]2[C@@H]3CCc4cc(O)ccc4[C@H]3CC[C@@]21C; system = HCl fasted stomach medium; conditions = 0.5 h; measurement = cumulative release; value = 81%
Structure (SMILES) = CO[C@H]1/C=C/O[C@@]2(C)Oc3c(C)c(O)c4c(O)c(c(/C=N/N5CCN(C)CC5)c(O)c4c3C2=O)NC(=O)/C(C)=C\C=C\[C@H](C)[C@H](O)[C@@H](C)[C@@H](O)[C@@H](C)[C@H](OC(C)=O)[C@@H]1C; system = mouse; conditions = 10 mg/kg; measurement = Cmax; value = 12 µM
Structure (SMILES) = CCCCCCCCCCCCCCCC(=O)N[C@@H](CCC(=O)NCCCC[C@H](NC(=O)[C@H](C)NC(=O)[C@H](C)NC(=O)[C@H](CCC(N)=O)NC(=O)CNC(=O)[C@H](CCC(=O)O)NC(=O)[C@H](CC(C)C)NC(=O)[C@H](Cc1ccc(O)cc1)NC(=O)[C@H](CO)NC(=O)[C@H](CO)NC(=O)[C@@H](NC(=O)[C@H](CC(=O)O)NC(=O)[C@H](CO)NC(=O)[C@@H](NC(=O)[C@H](Cc1ccccc1)NC(=O)[C@@H](NC(=O)CNC(=O)[C@H](CCC(=O)O)NC(=O)[C@H](C)NC(=O)[C@@H](N)Cc1cnc[nH]1)[C@@H](C)O)[C@@H](C)O)C(C)C)C(=O)N[C@@H](CCC(=O)O)C(=O)N[C@@H](Cc1ccccc1)C(=O)N[C@H](C(=O)N[C@@H](C)C(=O)N[C@@H](Cc1c[nH]c2ccccc12)C(=O)N[C@@H](CC(C)C)C(=O)N[C@H](C(=O)N[C@@H](CCCNC(=N)N)C(=O)NCC(=O)N[C@@H](CCCNC(=N)N)C(=O)NCC(=O)O)C(C)C)[C@@H](C)CC)C(=O)O; system = overweight or obese adults; conditions = 3.0 mg; measurement = benign colorectal neoplasm incidence; value = 0.5%
Structure (SMILES) = Nc1cc(C(F)(F)F)c(-c2nc(N3CCOCC3)nc(N3CCOCC3)n2)cn1; tested on = Serine/threonine-protein kinase PAK 5 (PAK5, Homo sapiens, UniProt Q9P286); assay = enzyme activity; conditions = 10 µM; how to read = reference: untreated; measurement = remaining activity; value = 86%
Structure (SMILES) = CCCC(C)C(=O)O (stereo not shown); assay = small eyes; system = zebrafish embryo; conditions = nominal concentration; measurement = EC10; value = > 900 µM
